Published values of several laboratories.
Every numbered part comes from another study and shows a few of its results, in no order. Changes are numbered by the printed parent chain.

Series 1
Target: Fragile X messenger ribonucleoprotein 1, C-terminal low-complexity region (Fmr1, Mus musculus, UniProt P35922)
Technique: RNA Bind-n-Seq
Molecule type: RNA
Matrix: in vitro
Tested at: 200 nM
Notes: whole 134-nt RNA, ends assumed
Together with: 150 mM LiCl
Relative to: input library
Reading: higher = stronger binding
Quantity: log2 enrichment
All molecules: 7-deaza-guanosine replaces G
Shared flanks, not repeated: GGGAGUUCUACAGUCCGACGAUC … UGGAAUUCUCGGGUGUCAAGG
GUCCUGUGCUACACAUCGUAUGUACCGAAUCGGGAAAAGGGGAAAAGGGGAAAAGGGGAAAGUAUUAUGUUACGCCGUUCGGAUCUGCAC: 0.923
CUCAAGUCCUGUGCUACACAUCGUAUGUACCGAAUCGGGGAAGGGAAGGAAGGAAAGUAUUAUGUUACGCCGUUCGGAUCUGCACUUCCA: -0.927
UGGGCAAUGUGUCGGCUGCAUGCACGAGCCAGGAACUGCGCAGCCUCUUCGAGCGCCGCGGACGCGUCAUCGAGUGUGACGUGGUGAAAG: -1.06
GUCCUGUGCUACACAUCGUAUGUACCGAAUCGGGUUUUUGGGAAAAAAAGGGUUUGGGAAAGUAUUAUGUUACGCCGUUCGGAUCUGCAC: -2.88
UCAAGUCCUGUGCUACACAUCGUAUGUACCGAAUCGGGCCCGGGCCCGGCCCGGAAAGUAUUAUGUUACGCCGUUCGGAUCUGCACUUCC: -1.87
CCUCAAGUCCUGUGCUACACAUCGUAUGUACCGAAUCGGGCGGGGCGGGCGGAAAGUAUUAUGUUACGCCGUUCGGAUCUGCACUUCCAG: -0.481
ACCAUGCAGGUGGGCAUCUUUGGGAAGUGGGGCAAGGGGGGGAUAGGGAGGGGGGUAACAAUUUGGGAACAGGUGGUCCCAGGUCGUUUC: 0.992
UUUUCUCACGAUGCACCUCCCCCUGGCACUAAGAAAAAGCACUUAUCCAUUGAGCAGCUGAAUGCUCGUCGCAGGAAAGUAUGGCUCAGC: -0.0323
CCUGUGCUACACAUCGUAUGUACCGAAUCGGUUUUUUUGGGUUUUUUUGGGGUUUUUUUGGAAAGUAUUAUGUUACGCCGUUCGGAUCUG: -0.149
UCAAGUCCUGUGCUACACAUCGUAUGUACCGAAUCGGAAAAAAAGGUUUGGUGGAAAGUAUUAUGUUACGCCGUUCGGAUCUGCACUUCC: -1.74
GCAGGAAGUAAAAACAAAUGGAAAUGCUUCGGAUAGUGGCAGGAGUGGGGGUUGCUAAGGAAAGGGUGGGAUGGGAGUGGGUAAAGAGUU: 1.7

Series 2
Target: PABPC1L2, full length, GST fusion (mouse, UniProt A0ABA7IW68)
Technique: RNAcompete
Molecule type: RNA
Matrix: in vitro
Tested at: 20 nM
Notes: 7-mer, probes averaged, single round
Relative to: mean of 7-mers
Reading: higher = stronger binding
Quantity: 7-mer Z-score
Residues (chain): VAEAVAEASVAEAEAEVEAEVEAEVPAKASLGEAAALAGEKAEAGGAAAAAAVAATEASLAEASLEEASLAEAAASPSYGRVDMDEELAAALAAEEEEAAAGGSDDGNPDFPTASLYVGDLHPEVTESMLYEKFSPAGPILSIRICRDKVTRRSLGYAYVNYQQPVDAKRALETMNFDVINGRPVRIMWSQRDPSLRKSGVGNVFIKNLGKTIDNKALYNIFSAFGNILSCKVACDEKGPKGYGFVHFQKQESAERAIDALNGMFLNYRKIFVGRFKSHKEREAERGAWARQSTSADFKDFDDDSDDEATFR
CAAAUUC: 0.0279
AGCAUAU: -0.0627
AAGAGAA: 0.729
ACUCGCG: -0.289
CCCUUAG: -0.349
GAUCCAU: -0.164
AGCGUCA: -0.22
UCCUGUC: -0.405
CACUCGA: -0.204
CUACGAG: -0.00652
GGGGUAC: 0.0823
AAGGUAG: 0.122
AUUUCGC: -0.427

Series 3
Target: CCNE1, cyclin fold, Cln2 fusion (human)
Technique: yeast growth competition, sequencing
Matrix: yeast
Notes: strong parent motif
Relative to: not given
Reading: higher = stronger binding
Quantity: normalised enrichment score
Parent: INSM1 docking peptide (human); PKAIRKLHFEDEV
PKAIRKLHWEDEV [F9W]: 0.905
PFAIRKLHFEDEV [K2F]: 4
PKAIRKLHFEPEV [D11P]: 2.63
PKAIRKLHFPDEV [E10P]: 4.77
PKRIRKLHFEDEV [A3R]: 0.212
PKAIRKLTFEDEV [H8T]: 5.52
PKAIRKLHFEREV [D11R]: 1.47
PKPIRKLHFEDEV [A3P]: 1.85
PKCIRKLHFEDEV [A3C]: 4.75
PKAIRKFHFEDEV [L7F]: -0.412

Single results of other studies
PhoQ, residues 284 288 289 292 302 303 TASMAF
fold induction (PhoP, residues 12 14 15 18 19 VQALL (Escherichia coli, UniProt P23836); Sort-seq, item: YFP reporter; E. coli; PhoQ-PhoP variant library, together with: 10 µM Mg2+; relative to: high Mg2+ state, higher = stronger signaling): 15.3

A few entries again (series 1):
UCAAGUCCUGUGCUACACAUCGUAUGUACCGAAUCGGGCCCGGGCCCGGCCCGGAAAGUAUUAUGUUACGCCGUUCGGAUCUGCACUUCC: -1.87
CCUGUGCUACACAUCGUAUGUACCGAAUCGGUUUUUUUGGGUUUUUUUGGGGUUUUUUUGGAAAGUAUUAUGUUACGCCGUUCGGAUCUG: -0.149
